Experimental data of several laboratories.
Protocols differ between the studies behind these lines. ± marks the error that the study gave.
lecB: Fucose-binding lectin PA-IIL (lecB, Pseudomonas aeruginosa, UniProt Q9HYN5)
FGFR1: Fibroblast growth factor receptor 1 (FGFR1, Homo sapiens, UniProt P11362)

Compound | target | assay | system | conditions | Kd [µM]
CC(C)C[C@@H]1NC(=O)[C@H](Cc2ccc(O)cc2)NC(=O)[C@H](CCCNC(=N)N)NC(=O)[C@H](C(C)C)NC(=O)[C@@H]2CCCN2C(=O)[C@H](Cc2ccccc2)NC(=O)[C@H](C)NC(=O)[C@H](CC(N)=O)NC(=O)[C@H](Cc2ccc(OS(=O)(=O)F)cc2)NC(=O)[C@@H](Cc2ccccc2)NC(=O)CSC[C@@H](C(=O)NCCOCCOCC(=O)NCCOCCOCC(=O)N[C@@H](CCCCN=[N+]=[N-])C(N)=O)NC(=O)[C@H](Cc2c[nH]c3ccccc23)NC(=O)[C@H](CCCNC(=N)N)NC(=O)[C@H](CCCCN)NC1=O | Nectin-4, extracellular domain (Homo sapiens, UniProt Q96NY8) | covalent binder, SPR single-cycle kinetics | PBS-T | 30 s contact, 25 °C | 6.4
CC[C@H](C)[C@H](NC(=O)[C@H](Cc1c[nH]cn1)NC(=O)[C@H](CCCCNC(=O)[C@@H](NC(=O)[C@H](CCCCN)NC(=O)CSC[C@H](NC(=O)[C@H](Cc1ccccc1)NC(=O)[C@H](CCCCNC(=O)[C@H](CC(C)C)NC(=O)[C@@H]1CCCN1C(=O)[C@H](CCCCN)NC(=O)c1ccc(O[C@@H]2O[C@H](CO)[C@H](O)[C@H](O)[C@H]2O)cc1)NC(=O)[C@H](CC(C)C)NC(=O)[C@@H]1CCCN1C(=O)[C@H](CCCCN)NC(=O)C[C@@H]1O[C@@H](C)[C@@H](O)[C@@H](O)[C@@H]1O)C(N)=O)[C@@H](C)CC)NC(=O)[C@@H](NC(=O)[C@H](CCCCN)NC(=O)CSC[C@H](NC(=O)[C@H](Cc1ccccc1)NC(=O)[C@H](CCCCNC(=O)[C@H](CC(C)C)NC(=O)[C@@H]1CCCN1C(=O)[C@H](CCCCN)NC(=O)c1ccc(O[C@@H]2O[C@H](CO)[C@H](O)[C@H](O)[C@H]2O)cc1)NC(=O)[C@H](CC(C)C)NC(=O)[C@@H]1CCCN1C(=O)[C@H](CCCCN)NC(=O)C[C@@H]1O[C@@H](C)[C@@H](O)[C@@H](O)[C@@H]1O)C(N)=O)[C@@H](C)CC)C(N)=O | lecB | binding, ITC |  | pH 7.5 | 0.276
NCC(=O)NCC(=O)N[C@@H](Cc1c[nH]cn1)C(=O)O | HCV IIB RNA | fluorescein-labelled RNA titration |  | 1 mM TCEP | 400 ± 100
N=C(N)NCCC[C@H](NC(=O)[C@H](Cc1ccccc1)NC(=O)[C@@H]1CCCN1C(=O)[C@H](CO)NC(=O)[C@H](Cc1ccccc1)NC(=O)CNC(=O)[C@@H]1CCCN1C(=O)[C@@H]1CCCN1C(=O)[C@@H](N)CCCNC(=N)N)C(=O)N[C@@H](CCCCNS(=O)(=O)c1ccc(C2=c3cc4c5c(c3Oc3c2cc2c6c3CCCN6CCC2)CCC[N+]=5CCC4)c(S(=O)(=O)[O-])c1)C(=O)O | Oligopeptide-binding protein OppA (oppA, Lactococcus lactis subsp. lactis, UniProt Q07741) | binding, fluorescence anisotropy |  | pH 5, 24 °C, added: dye-labelled peptide | 12.3 ± 0.5
O=C(O)CN(CCN(CC(=O)O)CC(=O)Nc1ccc([As](O)O)cc1)CC(=O)Nc1ccc([As](O)O)cc1 | Protein disulfide-isomerase, reduced (P4HB, Homo sapiens, UniProt P07237) | binding, absorbance titration |  | pH 7.5, 25 °C | 0.054 ± 0.029
CC(C)C[C@H](NC(=O)[C@H](Cc1ccc(O)cc1)NC(=O)[C@@H](CCCNC(=N)N)NC(=O)[C@@H](CO)NC(=O)[C@H](Cc1ccccc1)NC(=O)[C@H](CC1CCCCC1)NC(=O)[C@H](CC(=O)O)NC(=O)CCC(C(=O)O)N1CCCN2CCN(CCCN(CC(=O)O)CC2)CC1)C(=O)N[C@@H](Cc1c[nH]c2ccccc12)C(=O)N[C@@H](CO)C(=O)O (stereo partly shown) | Urokinase plasminogen activator surface receptor (Homo sapiens, UniProt Q03405) | binding, surface plasmon resonance |  |  | 0.027
CC(C)C[C@H](NC(=O)[C@@H]1CCCN1C(=O)[C@H](CCCCN)NC(=O)C[C@@H]1O[C@@H](C)[C@@H](O)[C@@H](O)[C@@H]1O)C(=O)NCCCC[C@H](NC(=O)[C@H](CC(C)C)NC(=O)[C@@H]1CCCN1C(=O)[C@H](CCCCN)NC(=O)c1ccc(O[C@@H]2O[C@H](CO)[C@H](O)[C@H](O)[C@H]2O)cc1)C(=O)N[C@@H](Cc1ccccc1)C(=O)N[C@@H](CS)C(N)=O | lecB | binding, ITC |  | pH 7.5 | 2.57
O=C(O)COc1ccc(Cl)cc1 | Chloride channel protein (Torpedo marmorata, UniProt P21564, C212S) | single-channel current, blocker, inside-out patch clamp |  | -100 and -80 mV | ~15000
CC(=O)/C=C/c1c(CCCC(=O)NCC(=O)NCc2cn(CCCNC(=O)c3ccc4c(c3)C(=O)OC43c4ccc(N(C)C)cc4Oc4cc(N(C)C)ccc43)nn2)[nH]c(=O)[nH]c1=O | Major histocompatibility complex class I-related protein 1 (MR1, Homo sapiens, UniProt Q95460) | binding, fluorescence polarization |  | apo protein | 0.02
CC(C)C[C@H](NC(=O)CN)C(=O)N[C@@H](CO)C(=O)N[C@@H](Cc1ccccc1)C(=O)N[C@@H](C)C(=O)N[C@@H](Cc1ccccc1)C(=O)N1CCC[C@H]1C(=O)N[C@@H](C)C(=O)N[C@@H](CCCCN)C(=O)N[C@@H](CC(=O)O)C(=O)N[C@@H](C)C(=O)N[C@@H](CCC(=O)O)C(=O)N[C@@H](CC(N)=O)C(=O)N[C@@H](C)C(=O)N[C@@H](CO)C(=O)N[C@@H](CO)C(=O)N1CCC[C@H]1C(=O)N[C@H](C(=O)O)C(C)C | Peptide cyclase 1 (Gypsophila vaccaria, UniProt R4P353, S562A) |  |  |  | 0.25 ± 0.039
CCC(C(=O)OC)C1N=C(c2ccc(Cl)cc2)c2cc(OC)ccc2-n2c(C)nnc21 (stereo not shown) | Bromodomain-containing protein 2, BD1 (BRD2, Homo sapiens, UniProt P25440) | binding, ITC |  |  | 9
CSCC[C@H](NC(C)=O)C(=O)N[C@@H](Cc1ccccc1)C(=O)N[C@@H](CC(N)=O)C(=O)N[C@H]1CSCc2cc3cc(c2)CSC[C@H](NC(=O)[C@H]([C@@H](C)O)NC(=O)[C@H](Cc2c[nH]cn2)NC(=O)[C@H](CO)NC(=O)[C@H](Cc2ccc(O)cc2)NC(=O)[C@H](Cc2ccccc2)NC(=O)[C@@H]2CCCN2C(=O)[C@H](CC(C)C)NC(=O)[C@H](CC(C)C)NC1=O)C(=O)N[C@@H](CO)C(=O)N[C@H](C(=O)NCC(=O)N[C@@H](CO)C(=O)NCC(=O)N[C@@H](CO)C(=O)NCC(=O)N[C@@H](CO)C(=O)N[C@@H](CC(=O)O)C(=O)N[C@@H](Cc1ccc(O)cc1)C(=O)N[C@@H](CCCCN)C(=O)N[C@@H](CC(=O)O)C(=O)N[C@@H](CC(=O)O)C(=O)N[C@@H](CC(=O)O)C(=O)N[C@@H](CC(=O)O)C(=O)N[C@@H](CCCCN)C(N)=O)CSC3 | FGFR1 | binding, BLI |  |  | > 10
CC[C@H](C)[C@H](NC(=O)[C@H](CS)NC(=O)[C@H](CCC(N)=O)NC(=O)[C@H](CC(C)C)NC(=O)[C@H](CCCCN)NC(=O)[C@H](CCCNC(=N)N)NC(=O)[C@H](C)NC(=O)[C@@H](NC(=O)[C@H](CCC(N)=O)NC(=O)[C@@H](NC(=O)[C@H](CCC(=O)O)NC(=O)[C@H](C)NC(=O)[C@H](CCC(N)=O)NC(=O)[C@@H](N)Cc1c[nH]cn1)C(C)C)[C@@H](C)CC)C(=O)N[C@@H](C)C(=O)N[C@@H](CC(=O)O)C(=O)N[C@@H](CCC(N)=O)C(=O)N[C@@H](Cc1ccccc1)C(=O)N[C@@H](Cc1c[nH]cn1)C(=O)N[C@@H](CCCNC(=N)N)C(=O)N[C@@H](CC(C)C)C(=O)N[C@@H](Cc1c[nH]cn1)C(=O)N[C@H](C(=O)N[C@@H](CCC(N)=O)C(=O)N[C@@H](CCC(N)=O)C(=O)O)C(C)C | BCL2L1 (Homo sapiens, UniProt Q07817, R100A) | fluorescence polarization |  | fluorescently labelled compound | > 100
CC[C@H](C)[C@H](NC(=O)[C@@H](N)CCCCN)C(=O)N[C@@H](Cc1c[nH]c2ccccc12)C(=O)N[C@@H](CC(C)C)C(=O)N[C@H](C(=O)N1CCC[C@H]1C(=O)NCC(=O)NCC(=O)N[C@@H](CC(=O)O)C(=O)N[C@H](C(=O)N[C@@H](CC(C)C)C(=O)N[C@@H](C)C(=O)O)C(C)C)[C@@H](C)CC | Gastrin-releasing peptide (Homo sapiens, UniProt P07492) | biolayer interferometry |  |  | 0.095
CC(C)[C@@H]1NC(=O)[C@H](Cc2ccccc2)NC(=O)CSC[C@@H](C(N)=O)NC(=O)[C@H](CCC(=O)O)NC(=O)[C@H](CO)NC(=O)[C@H](Cc2c[nH]c3ccccc23)NC(=O)[C@H](C(C)C)NC(=O)[C@H](C(C)C)NC(=O)[C@H](Cc2ccc(O)cc2)NC(=O)[C@H](CC(=O)O)NC(=O)[C@H](Cc2c[nH]c3ccccc23)NC(=O)[C@H](Cc2ccc(O)cc2)NC(=O)[C@H](Cc2c[nH]c3ccccc23)NC(=O)[C@H](CCC(=O)O)NC1=O | Interleukin-1 receptor-like 2, D1-D2 domains (IL1RL2, Homo sapiens, UniProt Q9HB29) | SPR |  | IL-36R D1-D2 with spesolimab Fab | 0.36
CSCC[C@H](NC(C)=O)C(=O)N[C@H](C(=O)N[C@@H](Cc1ccc(O)cc1)C(=O)N[C@@H](CCCNC(=N)N)C(=O)N[C@H]1CSCc2cc3cc(c2)CSC[C@H](NC(=O)[C@H](Cc2ccc(O)cc2)NC(=O)[C@@H]2CCCN2C1=O)C(=O)N[C@@H](CC(C)C)C(=O)N[C@@H](Cc1ccc(O)cc1)C(=O)N[C@@H](CC(C)C)C(=O)N[C@H](C(=O)N[C@@H](CC(C)C)C(=O)N[C@@H](CC(C)C)C(=O)N[C@H](C(=O)NCC(=O)N[C@@H](CO)C(=O)NCC(=O)N[C@@H](CO)C(=O)NCC(=O)N[C@@H](CO)C(=O)N[C@@H](CC(=O)O)C(=O)N[C@@H](Cc1ccc(O)cc1)C(=O)N[C@@H](CCCCN)C(=O)N[C@@H](CC(=O)O)C(=O)N[C@@H](CC(=O)O)C(=O)N[C@@H](CC(=O)O)C(=O)N[C@@H](CC(=O)O)C(=O)N[C@@H](CCCCN)C(N)=O)[C@@H](C)O)CSC3)C(C)C | FGFR1 | binding, BLI |  |  | 0.84

For quick reference, copied from above:
Compound | target | assay | system | conditions | Kd [µM]
CC(=O)/C=C/c1c(CCCC(=O)NCC(=O)NCc2cn(CCCNC(=O)c3ccc4c(c3)C(=O)OC43c4ccc(N(C)C)cc4Oc4cc(N(C)C)ccc43)nn2)[nH]c(=O)[nH]c1=O | Major histocompatibility complex class I-related protein 1 (MR1, Homo sapiens, UniProt Q95460) | binding, fluorescence polarization |  | apo protein | 0.02
O=C(O)COc1ccc(Cl)cc1 | Chloride channel protein (Torpedo marmorata, UniProt P21564, C212S) | single-channel current, blocker, inside-out patch clamp |  | -100 and -80 mV | ~15000
CC(C)[C@@H]1NC(=O)[C@H](Cc2ccccc2)NC(=O)CSC[C@@H](C(N)=O)NC(=O)[C@H](CCC(=O)O)NC(=O)[C@H](CO)NC(=O)[C@H](Cc2c[nH]c3ccccc23)NC(=O)[C@H](C(C)C)NC(=O)[C@H](C(C)C)NC(=O)[C@H](Cc2ccc(O)cc2)NC(=O)[C@H](CC(=O)O)NC(=O)[C@H](Cc2c[nH]c3ccccc23)NC(=O)[C@H](Cc2ccc(O)cc2)NC(=O)[C@H](Cc2c[nH]c3ccccc23)NC(=O)[C@H](CCC(=O)O)NC1=O | Interleukin-1 receptor-like 2, D1-D2 domains (IL1RL2, Homo sapiens, UniProt Q9HB29) | SPR |  | IL-36R D1-D2 with spesolimab Fab | 0.36
